Measured values gathered from unrelated publications.
Numbered parts are unrelated; each lists some results of a single study. Changes are numbered by the printed parent chain.

Block 1
Target: RING finger protein unkempt homolog, zinc fingers 1-6, GST-SBP tag (UNK, Homo sapiens, UniProt Q9C0B0, residues 30-357)
UniProt Q9C0B0, sequence (30-357, looked up): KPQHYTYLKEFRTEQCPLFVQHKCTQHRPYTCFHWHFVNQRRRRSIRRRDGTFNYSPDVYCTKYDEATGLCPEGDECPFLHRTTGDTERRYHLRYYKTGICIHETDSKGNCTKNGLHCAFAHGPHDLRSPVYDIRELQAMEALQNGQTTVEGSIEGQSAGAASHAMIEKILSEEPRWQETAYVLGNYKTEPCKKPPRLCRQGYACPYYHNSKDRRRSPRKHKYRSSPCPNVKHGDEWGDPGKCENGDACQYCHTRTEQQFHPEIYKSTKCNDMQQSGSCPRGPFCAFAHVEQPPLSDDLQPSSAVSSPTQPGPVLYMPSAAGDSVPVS
Technique: RNA Bind-n-Seq
Form: RNA
Medium: in vitro
Concentration: not given
Setting: RNA with constant flanks, human and mouse sites, ends assumed
Reference: input RNA pool
Direction: higher = stronger binding
Sequence	bound/input enrichment [ratio]
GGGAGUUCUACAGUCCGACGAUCUAAAUGGUAUUUUUUUUAAAUGUCAGCUCUUCCAUAAUUCAGUCUAGAUAGGAGAUUAUUUAACUGAAGAUCUUGGUGAGUGUCAUUUUUUUUUCUUUUUUCUUUUUUUGGUUUUUCAAGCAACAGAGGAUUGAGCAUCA	1.77
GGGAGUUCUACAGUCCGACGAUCCUCCUGUCUCGAUUUACUCGAAAUGAGUUUAAUCUGGAAAGCAAGAGCACCAUUGGAGUAGAGUUUGCAACAAGAAGCAUCCAGGUUGAUGGAAAAACAAUAAAGGCACAGAUAUGGGACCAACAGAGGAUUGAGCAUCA	0.306
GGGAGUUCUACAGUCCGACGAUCGGCACCAUCCAAGUGACCUUAUUUAACCCCAACCAGACUGUGGUGAAGAUGUUCCUUGUGACCUUUGACUUCUCGGACAUGCCUGCUGCCCACAUGACCUUCCUGCGCCAUCGCCUCUUCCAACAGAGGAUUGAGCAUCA	0.297
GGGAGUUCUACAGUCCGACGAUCAGACUUGAAACAAUAUUUUUUGCCAAGCAGGUAAUUAAUAAUGCUUGUGCCACUCAGGCUAUCGUAAGUGUACUACUGAACUGUACGCAUCAAGAUGUGCAUUUAGGAGAGACAUUAUCACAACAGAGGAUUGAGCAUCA	0.929
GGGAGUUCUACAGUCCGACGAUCUAUAUGAAGGUUAUAGAACGAGCGGCUUUUCCUCGGCGUCUCUGGGAACGGGUCCGGCUUAGUAAAAACUAUGAGAAAGCACUGGAGCAAAUAGAUGAAAAUCUGAUUUACUGGCCCCGUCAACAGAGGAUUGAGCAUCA	0.597
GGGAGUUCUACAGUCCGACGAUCGAGUCGGAUGUUGAGGCUCAGCAGUCUCAUGGCAGCAGUGCCUGUUCACAGCCCCAUGGCAGCGUUACCCAGUCCCAAGGCUCCUCCUCACAGUCCCAGGGCAUAUCCAGCUCCUCUACCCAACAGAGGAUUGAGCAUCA	0.106
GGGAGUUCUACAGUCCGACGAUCGUUGAGAAAAAGGAGAAACCUCUUCCAAGACUUAAUAUCCAUUCUGGAUUCUGGAUUUUGGCAUCCAUUGUUGUGACCUAUUAUGUUGACUUCUUUAAAACCCUUAAAGAAAACUUCCACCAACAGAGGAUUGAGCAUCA	0.203
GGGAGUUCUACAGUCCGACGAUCCUGGAGGCCGUCCUGUUGGCCUUGGCCCGCAUCCGCCGCGCCCUGGAGCAGCAGCCCCUGGCAGCCGGGGCGGCGCCUCCCGAGCUGCAGUGGCUCCGAGCGCAGUGUGCCCGCCUCAGCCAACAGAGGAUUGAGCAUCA	0.102

Block 2
Target: Prothrombin, mature alpha-thrombin (F2, Homo sapiens, UniProt P00734)
Technique: aptamer microarray, sandwich
Form: DNA with 2'F-ANA
Medium: in vitro
Concentration: 200 nM
Setting: whole 15-mer aptamer, many near background
Added: Cy3 exosite-II aptamer, 400 nM
Direction: higher = stronger binding
Sequence: GGTTGGTGTGGTTGG
Modification	mean fluorescence intensity
2'F-ANA at 3 4 5 8 11 12 13 14	58.6 a.u.
2'F-ANA at 3 8 11 12 13	1230 a.u.
2'F-ANA at 3 4 8 9 13 15	583 a.u.
2'F-ANA at 1 2 3 4 5 6 7 9 12 13 14 15	49.1 a.u.
2'F-ANA at 2 4 6 8 10 11 12 14	56.8 a.u.
2'F-ANA at 1 2 3 4 6 8 12 13	274 a.u.
2'F-ANA at 3 6 7 8 12 13 15	1180 a.u.
2'F-ANA at 1 4 6 8 9 10 11 13 15	54.5 a.u.
2'F-ANA at 3 5 6 11 12 15	182 a.u.
2'F-ANA at 2 3 13 15	822 a.u.
2'F-ANA at 4 6 8 9 11 13 14	66.1 a.u.
2'F-ANA at 5 10 11 13 14 15	87.4 a.u.
2'F-ANA at 5 9 11 12 13 15	79.5 a.u.
2'F-ANA at 3 5 6 9 10 13 14 15	53.8 a.u.
2'F-ANA at 1 2 4 6 13 15	71.5 a.u.

Block 3
Target: ABI1, truncated, D143A, DHFR fusion (Arabidopsis thaliana)
Technique: DHFR PCA, deep sequencing
Medium: yeast
Setting: methotrexate growth selection, single substitutions
Added: (+)-ABA 0 µM
Reference: wild-type fitted maximum
Direction: higher = stronger binding
Parent: PYL1, truncated, DHFR fusion (Arabidopsis thaliana); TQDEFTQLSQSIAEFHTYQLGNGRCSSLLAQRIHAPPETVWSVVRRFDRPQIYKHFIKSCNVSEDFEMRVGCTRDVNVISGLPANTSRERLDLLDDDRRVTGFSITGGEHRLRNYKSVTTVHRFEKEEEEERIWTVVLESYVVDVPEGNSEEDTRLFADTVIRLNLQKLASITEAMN; partner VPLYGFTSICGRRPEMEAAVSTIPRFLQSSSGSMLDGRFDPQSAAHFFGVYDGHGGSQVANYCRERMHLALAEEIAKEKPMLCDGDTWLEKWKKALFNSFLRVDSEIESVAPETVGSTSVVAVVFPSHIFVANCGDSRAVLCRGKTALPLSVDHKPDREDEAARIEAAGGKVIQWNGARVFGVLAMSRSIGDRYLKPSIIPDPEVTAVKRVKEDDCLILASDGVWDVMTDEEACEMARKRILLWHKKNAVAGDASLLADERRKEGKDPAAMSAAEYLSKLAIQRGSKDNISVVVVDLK
Change	relative binding score
P50T	-1.23%
R88W	2.48%
R113Y	-3.36%
Y115D	2.02%
I133L	22.1%
K58D	3.5%
V142N	-10.5%
V62E	-4.85%
M176Q	10.3%
T17S	12.7%
T17N	4.97%
E139D	-7.24%
D92M	3.8%
V145I	38.3%
R69N	7.45%

Single results of other studies
Molecule	target	test	system	conditions	scale	endpoint	result
PhoQ, residues 284 288 289 292 302 303 SLANKL	PhoP, residues 12 14 15 18 19 NIMAP (Escherichia coli, UniProt P23836)	Sort-seq, item: YFP reporter	E. coli	PhoQ-PhoP variant library, added: 10 µM Mg2+	reference: high Mg2+ state, higher = stronger signaling	fold induction	0.433

Excerpt of the above (block 3):
Change	relative binding score
M176Q	10.3%
D92M	3.8%
R69N	7.45%
I133L	22.1%
T17N	4.97%
